Measurements collected from several papers.
Parts stem from different laboratories: compare values within a part only. Substitutions count along the parent as printed.

Block 1 — method: DHFR PCA, dose-response; matrix: yeast; setting: Hill fit, mean, not affinity; added: (+)-ABA, dose series; reading: lower = more sensitive
Target: ABI1, truncated, D143A, DHFR fusion (Arabidopsis thaliana, UniProt P49597)
Parent: PYL1, truncated, DHFR fusion (Arabidopsis thaliana, UniProt Q8VZS8); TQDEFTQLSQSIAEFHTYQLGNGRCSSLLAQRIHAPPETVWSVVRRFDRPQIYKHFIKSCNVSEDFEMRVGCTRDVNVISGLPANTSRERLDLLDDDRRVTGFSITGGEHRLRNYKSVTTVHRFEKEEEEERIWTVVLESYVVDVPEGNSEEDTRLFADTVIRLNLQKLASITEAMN
Change	ABA EC50 [µM]
N61E	3.35
W134D	3.3
V62L	3.01
G148R	35.3
E14K	4.53
C60I	18
I172K	27
R99E	223
V118K	3.51
G107N	59.8
N165K	181
R99C	2.87
R46G	39.1
R46K	6.88
E130D	1.4
E139W	6.25
L29R	25.4
V145P	67.1

Block 2 — method: protein-binding microarray; form: double-stranded DNA, one strand shown; matrix: in vitro; concentration: 2200 nM top; setting: 60-bp whole probe; added: salmon DNA 0.4 mg/ml; relative to: random background probes; reading: higher = stronger binding; all sequences stand within: GCCTAGCAC … GTCTTGATTCGCTTGACGCTGCTG
Target: Interferon regulatory factor 7, full length, phosphomimetic (IRF7, Homo sapiens, UniProt Q92985, residues 1-503, S471D/S472D/S475D/S476D/S477D/S483D/S484D/S487D)
Target sequence (chain): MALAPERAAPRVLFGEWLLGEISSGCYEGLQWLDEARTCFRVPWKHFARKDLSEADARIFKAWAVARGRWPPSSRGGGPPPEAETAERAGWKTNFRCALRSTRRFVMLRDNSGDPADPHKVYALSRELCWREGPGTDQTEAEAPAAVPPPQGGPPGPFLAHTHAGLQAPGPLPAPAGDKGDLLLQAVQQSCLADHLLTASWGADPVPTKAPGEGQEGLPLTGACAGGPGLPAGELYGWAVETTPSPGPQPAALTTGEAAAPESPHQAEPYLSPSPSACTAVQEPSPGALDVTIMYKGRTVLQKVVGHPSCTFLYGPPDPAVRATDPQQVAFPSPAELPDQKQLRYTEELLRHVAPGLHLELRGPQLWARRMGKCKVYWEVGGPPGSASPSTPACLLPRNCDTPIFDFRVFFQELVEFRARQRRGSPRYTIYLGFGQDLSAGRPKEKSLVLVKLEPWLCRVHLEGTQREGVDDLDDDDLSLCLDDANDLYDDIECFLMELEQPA
Strand	fitted relative affinity [z-score]
GACGGTATCGACTCTCGGGACGTGCTA	0.23
TTAGGTCTCCTGATCCTTTAGTGCTAG	0.304
TTAGGTAACGACACTGGGTTAGTGCTA	-0.561
GACGGTATCGGTATAGGGACGTGCTAG	0.17
ATCTCTGTCCGTGCTCAGCTCGTGCTA	1.04
TTAGTACTGGGGTTTCGGTTAGTGCTA	3.54
TCAGCTCTAGGTTCTCTGACTGTGCTA	0.181
TTAGGACTGCTACTGCGTTAGTGCTAG	-0.331
GGCGGTATCCTTATCCTGACGTGCTAG	0.279
GTAGATGCCTTTCTCTTGGAGTGCTAG	0.644
TCATCTTGTTCTCTCTGACTGTGCTAG	2.15
TTAGGTATGGACTTTCGGTTAGTGCTA	5.36
TGTGGCTTAGCTGTCACCTCGTGCTAG	0.0861
GACGGTTTCGCCTATCGGGACGTGCTA	3.61
CTAGTTTCCATTTTCAGAATGTGCTAG	8.15
GACGGTTTCGGACTGGGTACGTGCTAG	3.81

Block 3 — method: RNAcompete; form: RNA; matrix: in vitro; concentration: 20 nM; setting: 7-mer, probes averaged, single round; relative to: mean of 7-mers; reading: higher = stronger binding
Target: PABPC1L2, full length, GST fusion (mouse, UniProt A0ABA7IW68)
Target sequence (chain): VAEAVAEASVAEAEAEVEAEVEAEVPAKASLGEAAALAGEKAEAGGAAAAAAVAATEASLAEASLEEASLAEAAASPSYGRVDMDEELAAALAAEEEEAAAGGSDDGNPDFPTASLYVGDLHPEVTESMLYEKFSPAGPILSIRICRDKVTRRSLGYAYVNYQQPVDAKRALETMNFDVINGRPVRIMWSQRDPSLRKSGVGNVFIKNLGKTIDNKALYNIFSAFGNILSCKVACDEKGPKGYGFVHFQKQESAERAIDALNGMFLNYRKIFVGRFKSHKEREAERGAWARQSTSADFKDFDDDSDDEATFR
Strand	7-mer Z-score
AAGACUU	0.115
CUCACGA	-0.104
UCAUGUG	-0.286
UCUACAA	0.00798
CCGUUGA	-0.164
GGGACAU	0.196
AAUGGCU	0.193
GUACCAC	-0.0881
CUUACAA	0.196
UGUGUAC	-0.266
CGUCGUU	-0.508
GAACGGA	0.037
ACAUCUU	-0.302
UAAAUGA	0.62
GAGGCGG	0.198
UGGGCUC	-0.155
UCCGGUG	-0.215
ACGAGCC	-0.159
UGCGAGA	0.0841
CUUUUAA	0.311
CUGUCUG	-0.267
AACACCA	0.336
CCGGAUU	-0.266
ACGGCAG	0.153
GGAGUAU	0.0497

Block 4 — target: CCNB3, cyclin fold, Cln2 fusion (human); method: yeast growth competition, sequencing; matrix: yeast; setting: weak parent motif; relative to: not given; reading: higher = stronger binding
Parent: CDKN1B docking peptide (human); PSACRNLFGPVDH
Change	normalised enrichment score
PSACRNLFVPVDH [G9V]	0.295
PSACRNLFGAVDH [P10A]	0.0729
PSARRNLFGPVDH [C4R]	1.06
PSKCRNLFGPVDH [A3K]	-0.148
PSACNNLFGPVDH [R5N]	0.0475
PSACFNLFGPVDH [R5F]	0.43
CSACRNLFGPVDH [P1C]	0.278
PTACRNLFGPVDH [S2T]	0.252
PSGCRNLFGPVDH [A3G]	0.194
PSACRNLFGGVDH [P10G]	0.292
PGACRNLFGPVDH [S2G]	0.34
PSVCRNLFGPVDH [A3V]	0.811
PSACRNLQGPVDH [F8Q]	0.259
PRACRNLFGPVDH [S2R]	0.488
PSACKNLFGPVDH [R5K]	0.111
PSHCRNLFGPVDH [A3H]	0.235

Block 5 — method: universal PBM; form: double-stranded DNA, one strand shown; matrix: in vitro; concentration: not given; reading: higher = stronger binding
Target: Sal-like protein 4, full length isoform B (SALL4, Homo sapiens, UniProt Q9UJQ4-2, residues 1-616)
Setting: 8-mer, flanks averaged, mean of replicates
Strand	E-score
ACGATTTA	0.268
ACTATCAT	0.247
AGTTGTCG	-0.0405
GAACCATA	0.0969
TTGAAAAA	0.342
CATAACGG	0.0352
GCGAACCC	-0.217
AACGTAGG	-0.162
GTTCTGTA	0.0358
CTTTAGAC	0.111
CTGAGGAA	-0.0464
ACAGCGAT	-0.169
CGCCGTAA	-0.151
AGTGAAAT	0.184
AGAGACTG	-0.251
AGTTTCCA	0.189
AATTCGGT	-0.00993
CTGTGCTA	-0.0602
AAGATAAA	0.288
CTTGGTTC	0.00999
CACTTAGC	-0.161
CATAGTCA	0.134
ATGACGCC	-0.0812
GGGCGTAC	-0.114
CACTGCGA	-0.07

Block 6 — method: RNA Bind-n-Seq; form: RNA; matrix: in vitro; concentration: 365 nM; relative to: no-protein control; reading: higher = stronger binding
Target: RNA binding protein fox-1 homolog 2, RRM domain, GST-SBP tag (RBFOX2, Homo sapiens, UniProt O43251-10, residues 100-194)
Setting: natural RNA segment, single round, ends assumed
Residues (chain): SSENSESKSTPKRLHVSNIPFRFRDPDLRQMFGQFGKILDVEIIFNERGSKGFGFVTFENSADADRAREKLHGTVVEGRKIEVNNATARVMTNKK
Strand	RBNS enrichment (R)
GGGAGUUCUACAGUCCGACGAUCAAAGGAUGGAAUUCUUUAUGAAGUGGGUUACAGAUCUUUGAAUAUGUUAUUUAUAAAAAAAUCAUUUAAAAAUUCUAGGUCAUUUUUCUCAGAACUAAAUUCAAAACAGGUGGAAUUCUCGGGUGCCAA	0.914
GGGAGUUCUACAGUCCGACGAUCUCUCUGUGGAGACUAAUUUUUUCCCCUUUUGCCAAAAGCAGUCCUUCCCAAAUUAACAAAGCAAACUGAAAUAAUACCUUGAAUAACAGGUUGCCUGUGGUCUCUGUCAUUGGAAUUCUCGGGUGCCAA	0.708
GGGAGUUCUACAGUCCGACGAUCGCUUGGAGAGCUGGGCUCUCGCAUGUCAUGUUUAGCCCACUGAGAAUAUACCCUCAGGUGACUCCCUCCGAUCCUGAAAGGGAAAGCAGCUGUCACCUGACUUCUGGCGGUGGAAUUCUCGGGUGCCAA	6.44
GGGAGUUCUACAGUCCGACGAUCGGAUCCAUCGCUGAUGGUGUUUCUUUAGCCCCAUCCCAAUUGGCCUAAAACAUUUGUCACCAGAACAGUGGGGAAAAGCCUUCCUUUCCAGCCAUGUCUGACAGUGAGCAUGGAAUUCUCGGGUGCCAA	0.529
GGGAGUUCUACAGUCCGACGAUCACCUUACCAAUAUUAAUCCCAGCGUGGUAACUCUGUGUGACCCCGAUAACAUUUUGUAACAUUGUGCUGCCUUAGAGUUUGUACUGUGAGUUCUAUCAGUAUUUAUGUUGUGGAAUUCUCGGGUGCCAA	0.534
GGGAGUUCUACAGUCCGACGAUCUUGCUUUGGCUGUCGUCUUCUGCCGUGUGCCAGAUGAGCUUGUGAUCUGGGAAGCCGGGGCACCCCCGUUUUGUUUCUCUGGGCGGUUGUGGCAGCUGAAGGCGGACGUUUGGAAUUCUCGGGUGCCAA	1.73
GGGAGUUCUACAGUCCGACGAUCUAUUCCGUAUCAGAUUGCAAAGACGGAAUGUUACUAUUUUAUCAGCAAGGUAUUAAAAUGCAUUUAUAAAUUCUUCUUGGCUUCAUUCAUGAAUAAACGUGUUAGCAAUUUGGAAUUCUCGGGUGCCAA	1.07
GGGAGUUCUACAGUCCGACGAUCUAACAGCCUUUUGUACAGAUAUCUACAAAUCAAACGAUGUCUCUAUCCAGUGCUUGCCCUCGGAGUGUCUUUAAAUGCACCAAGUGUACAAUAAAAACAUGGAAGUCAAUUGGAAUUCUCGGGUGCCAA	0.318
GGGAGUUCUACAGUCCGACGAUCUUUUUACCAUACCAACUUCUCUCCCAUCUCUAGGUGGCUCAGUCCAUGGCCACUCCCUGCCCCCAGCCUGGCUGGACAGCAAGGAAUCCACAGCCCACACGUGAGCUCCCUGGAAUUCUCGGGUGCCAA	0.345
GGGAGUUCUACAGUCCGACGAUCUGGUCACCCUGGCAAACUGCACCUGACAUUGAGGUCCCUUUUCACCAAAGAUGCACAAGGUGUCCAUGCCGAGCCGACAUCAUUCAGGCCAAGGGCAGAGGAUGUAAUGAUGGAAUUCUCGGGUGCCAA	0.427
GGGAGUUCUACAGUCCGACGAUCGGCCGGGAAAAGAGACAGGCAGCUCCUCAGCCUGAGAACGCCGCCGAUGCGACCAAGUGUCAGGCUCUAUGUGCCAUGCUUCAGAGUGCCCACCUUGAGAGAAGCCACCUUGGAAUUCUCGGGUGCCAA	0.392
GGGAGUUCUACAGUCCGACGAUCGUCAUUCUUAGUGUUCAGGUGCUAAAGGUUGUUCUCUUUGGGAACAGAGUGACAAGAAACUGGCUAGUUUGCUAUAAAUCCUACAUUCUGUUUGAUACCUUGAGAGCAGAUGGAAUUCUCGGGUGCCAA	0.282

Block 7 — target: CREB3, bZIP domain (human); method: DHFR protein complementation; matrix: yeast; relative to: wild-type JUN-FOS pair; reading: higher = stronger binding
Setting: single substitutions, most at no-binding floor
Parent: JUN, bZIP domain (human); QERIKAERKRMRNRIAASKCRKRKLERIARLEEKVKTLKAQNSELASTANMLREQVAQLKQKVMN; partner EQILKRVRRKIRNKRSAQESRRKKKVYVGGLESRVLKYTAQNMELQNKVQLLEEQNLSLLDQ
Change	binding fitness [natural log]
A40R	-1.39
E44T	-1.5
L45A	-1.53
E44I	-1.37
V35Q	-1.55
A46V	-1.34
Q41E	-1.44
T48F	-1.56
E54K	-1.41
S47N	-1.37
S47V	-1.4
S47M	-1.46
V56R	-1.51
E44Y	-1.41
T48Y	-1.37

Excerpt of the above (block 3):
Strand	7-mer Z-score
GGGACAU	0.196
AAUGGCU	0.193
GUACCAC	-0.0881
CUUACAA	0.196
UGUGUAC	-0.266
CGUCGUU	-0.508
GAACGGA	0.037
ACAUCUU	-0.302
UAAAUGA	0.62
GAGGCGG	0.198
UGGGCUC	-0.155
UCCGGUG	-0.215
ACGAGCC	-0.159
UGCGAGA	0.0841
